{"data": "Assay results from different studies", "note": "Every numbered part comes from another study and shows a few of its results, in no order."}
{"data": "Study 1", "target": "Sal-like protein 4, full length isoform B (SALL4, Homo sapiens, UniProt Q9UJQ4-2, residues 1-616)", "technique": "universal PBM", "molecule type": "double-stranded DNA, one strand shown", "matrix": "in vitro", "concentration": "not given", "notes": "8-mer, flanks averaged, mean of replicates", "direction": "higher = stronger binding", "Residues (chain)": "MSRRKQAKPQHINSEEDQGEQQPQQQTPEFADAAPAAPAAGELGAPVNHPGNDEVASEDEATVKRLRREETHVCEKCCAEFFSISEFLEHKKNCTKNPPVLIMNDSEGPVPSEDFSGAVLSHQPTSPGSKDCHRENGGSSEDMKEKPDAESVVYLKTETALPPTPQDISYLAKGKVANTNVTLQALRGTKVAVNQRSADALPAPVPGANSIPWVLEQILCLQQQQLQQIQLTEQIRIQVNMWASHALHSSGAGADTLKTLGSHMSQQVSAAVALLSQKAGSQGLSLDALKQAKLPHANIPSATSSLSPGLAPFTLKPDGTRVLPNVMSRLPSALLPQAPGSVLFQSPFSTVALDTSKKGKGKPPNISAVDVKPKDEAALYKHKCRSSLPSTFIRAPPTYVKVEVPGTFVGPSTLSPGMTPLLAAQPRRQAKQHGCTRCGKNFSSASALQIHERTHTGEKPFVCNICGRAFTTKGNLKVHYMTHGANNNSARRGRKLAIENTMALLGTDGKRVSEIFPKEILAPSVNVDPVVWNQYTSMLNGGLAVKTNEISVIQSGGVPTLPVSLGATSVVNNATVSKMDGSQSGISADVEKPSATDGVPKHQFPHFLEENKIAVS"}
{"Strand": "TCCTCGCA", "E-score": -0.208}
{"Strand": "CATCCGAC", "E-score": -0.159}
{"Strand": "AGTACGAT", "E-score": 0.204}
{"Strand": "GTAGCTAC", "E-score": 0.0693}
{"Strand": "CAGTGCTA", "E-score": -0.114}
{"Strand": "CGAAGCTA", "E-score": 0.0909}
{"Strand": "CACAAGGC", "E-score": -0.113}
{"data": "Study 2", "target": "Interferon regulatory factor 5, full length, phosphomimetic (IRF5, Homo sapiens, UniProt Q13568-2, residues 1-514, K96S/S451D/S453D/S456D/S462D)", "technique": "protein-binding microarray", "molecule type": "double-stranded DNA, one strand shown", "matrix": "in vitro", "concentration": "250 nM", "notes": "60-bp whole probe", "with": "salmon DNA 0.4 mg/ml", "relative to": "random background probes", "direction": "higher = stronger binding", "all sequences stand within": "GCCTAGCAC … GTCTTGATTCGCTTGACGCTGCTG"}
{"Strand": "TCACTTTCCTTTATGTCACTGTGCTAG", "log fluorescence [z-score]": 2.6}
{"Strand": "GACGATTTCAGTATCGAGAAGTGCTAG", "log fluorescence [z-score]": 3.72}
{"Strand": "GCGATTTGAGGAGCTCGCTCGTGCTAG", "log fluorescence [z-score]": -0.782}
{"Strand": "GACGAACTGAGGTATCGAGACGTGCTA", "log fluorescence [z-score]": 0.282}
{"Strand": "TCAAATATTTACCTCTCACTGTGCTAG", "log fluorescence [z-score]": 0.432}
{"Strand": "TTAGGTTTAGACACTGGGTTAGTGCTA", "log fluorescence [z-score]": 0.0516}
{"Strand": "TTAGATTTCAGTTCTGATTAGTGCTAG", "log fluorescence [z-score]": 1.81}
{"data": "Study 3", "target": "Centromere-binding protein 1, full length, N-terminal tag (CBF1, Saccharomyces cerevisiae, UniProt P17106, residues 1-351)", "technique": "protein-binding microarray", "molecule type": "double-stranded DNA, one strand shown", "matrix": "in vitro", "concentration": "0.8 µM", "notes": "whole 60-bp probe, no competitor", "direction": "higher = stronger binding", "all sequences stand within": "… GTCTTGATTCGCTTGACGCTGCTG", "chain of UniProt P17106 (whole entry, looked up)": "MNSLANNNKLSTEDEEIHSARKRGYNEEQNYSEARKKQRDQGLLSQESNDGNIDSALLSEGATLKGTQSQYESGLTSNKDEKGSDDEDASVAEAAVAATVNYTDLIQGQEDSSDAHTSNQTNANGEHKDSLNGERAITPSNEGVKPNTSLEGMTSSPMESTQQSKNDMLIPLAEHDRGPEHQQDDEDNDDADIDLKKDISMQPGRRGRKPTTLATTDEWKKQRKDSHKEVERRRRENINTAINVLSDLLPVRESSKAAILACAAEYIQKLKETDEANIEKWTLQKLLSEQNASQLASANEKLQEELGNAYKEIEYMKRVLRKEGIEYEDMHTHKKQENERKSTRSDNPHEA"}
{"Strand": "CCTAACTACTATATCCATCTGATATAGCTTCGTACA", "fluorescence intensity": "561 a.u."}
{"Strand": "GAATAGATATATTTTCTGATGTCCTAGGAATTGTAG", "fluorescence intensity": "503 a.u."}
{"Strand": "CCTAACTACTATAGTAATCTGATATAGCTTCGTACA", "fluorescence intensity": "514 a.u."}
{"Strand": "GAAAACTATCACTTACACCTGAGTGTTGTCATTTAG", "fluorescence intensity": "521 a.u."}
{"Strand": "CCTAACTACTATAGTTTTGTGATATAGCTTCGTACA", "fluorescence intensity": "488 a.u."}
{"Strand": "GAATGTGTCTGCAGCCACGTGCAAAGTACGGTCTAG", "fluorescence intensity": "3940 a.u."}
{"data": "Single results of other studies"}
{"Molecule": "PhoQ, residues 284 288 289 292 302 303 SVHLDV", "target": "PhoP, residues 12 14 15 18 19 STWGI (Escherichia coli, UniProt P23836)", "assay": "Sort-seq, item: YFP reporter", "test system": "E. coli", "conditions": "PhoQ-PhoP variant library, with: 10 µM Mg2+", "scale": "relative to: high Mg2+ state, higher = stronger signaling", "measurement": "fold induction", "value": 3.53}
{"note": "Repeated from above (study 3):"}
{"Strand": "CCTAACTACTATATCCATCTGATATAGCTTCGTACA", "fluorescence intensity": "561 a.u."}
